Experimental data of several laboratories.
Parts stem from different laboratories: compare values within a part only. Positions count from the first letter of the parent shown.

Set 1 — technique: aptamer microarray, sandwich; form: DNA with 2'F-ANA; medium: in vitro; tested at: 200 nM; added: Cy3 exosite-II aptamer, 400 nM; reading: higher = stronger binding; strand: GGTTGGTGTGGTTGG
Target: Prothrombin, mature alpha-thrombin (F2, Homo sapiens, UniProt P00734)
Notes: whole 15-mer aptamer, many near background
For `2'F-ANA at 1 2 3 4 5 8 9 10 14 15`, “mean fluorescence intensity” read 47.2 a.u.
Under “mean fluorescence intensity”, `2'F-ANA at 4 5 8 9 10 12 13 15` is recorded as 47.7 a.u.
`2'F-ANA at 4 7 12 13 14 15` — result for “mean fluorescence intensity”: 133 a.u.
For `2'F-ANA at 3 4 6 8 11 12 14`, “mean fluorescence intensity” read 341 a.u.
`2'F-ANA at 1 2 3 8 9 10 13 14 15`: “mean fluorescence intensity” 57.8 a.u.
`2'F-ANA at 1 3 8 9 11 12 14`: “mean fluorescence intensity” 110 a.u.
For `2'F-ANA at 3 5 6 8 11 12 14`, “mean fluorescence intensity” read 60.1 a.u.
`2'F-ANA at 4 8 13`: “mean fluorescence intensity” 254 a.u.

Set 2 — target: CCNA2, cyclin fold, Cln2 fusion (human); technique: yeast growth competition, sequencing; medium: yeast; notes: strong parent motif; reference: not given; reading: higher = stronger binding
Starting sequence: viral docking peptide; KGVKRKLFAEDSS; partner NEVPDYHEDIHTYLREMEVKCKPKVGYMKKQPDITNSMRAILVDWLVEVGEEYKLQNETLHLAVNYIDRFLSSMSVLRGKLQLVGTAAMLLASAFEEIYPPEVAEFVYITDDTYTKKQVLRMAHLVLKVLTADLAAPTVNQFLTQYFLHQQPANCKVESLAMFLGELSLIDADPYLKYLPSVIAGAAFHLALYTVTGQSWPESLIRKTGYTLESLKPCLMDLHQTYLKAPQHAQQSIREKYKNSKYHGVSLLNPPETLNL
For `KGVKRKLFAIDSS [E10I]`, “normalised enrichment score” read 5.79.
Under “normalised enrichment score”, `KGVVRKLFAEDSS [K4V]` is recorded as 5.62.
`KGVKRKLFARDSS [E10R]`: “normalised enrichment score” 4.72.
`KGVGRKLFAEDSS [K4G]`: “normalised enrichment score” 3.55.
For `KGVKRKLFAEDSA [S13A]`, “normalised enrichment score” read 6.98.
For `KGVKRKLFAEFSS [D11F]`, “normalised enrichment score” read 6.37.
Under “normalised enrichment score”, `KGVSRKLFAEDSS [K4S]` is recorded as 6.33.
Under “normalised enrichment score”, `KGVKRKLFANDSS [E10N]` is recorded as 6.15.
Under “normalised enrichment score”, `KGVKRKMFAEDSS [L7M]` is recorded as 1.09.
`KGVKRKLFAADSS [E10A]` — result for “normalised enrichment score”: 6.12.
`KGVKRKSFAEDSS [L7S]` — result for “normalised enrichment score”: 0.364.
Under “normalised enrichment score”, `KGVKRKLFAEKSS [D11K]` is recorded as 6.13.
For `KGVKNKLFAEDSS [R5N]`, “normalised enrichment score” read 1.09.
`KGIKRKLFAEDSS [V3I]` — result for “normalised enrichment score”: 5.39.
Under “normalised enrichment score”, `KNVKRKLFAEDSS [G2N]` is recorded as 6.41.
For `KGVDRKLFAEDSS [K4D]`, “normalised enrichment score” read 1.3.
For `KAVKRKLFAEDSS [G2A]`, “normalised enrichment score” read 5.96.
For `KGVKLKLFAEDSS [R5L]`, “normalised enrichment score” read 1.83.

Set 3 — target: NFE2L1, bZIP domain (human); technique: DHFR protein complementation; medium: yeast; reference: wild-type JUN-FOS pair; reading: higher = stronger binding
Notes: single substitutions, most at no-binding floor
Starting sequence: JUN, bZIP domain (human); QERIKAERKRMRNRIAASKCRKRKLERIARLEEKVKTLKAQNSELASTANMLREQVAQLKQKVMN; partner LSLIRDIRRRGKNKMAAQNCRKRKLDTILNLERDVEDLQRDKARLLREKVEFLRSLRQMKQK
The binding fitness of `S47C` is reported as -1.47 natural log.
`L38P` has a binding fitness of -1.42 natural log.
With `Q55Y` the binding fitness was -1.68 natural log.
The binding fitness of `A29T` is reported as -1.46 natural log.
`A46T` has a binding fitness of -1.54 natural log.
`E33M` has a binding fitness of -1.46 natural log.
With `L31R` the binding fitness was -1.45 natural log.
For `A29N`, the binding fitness was -1.54 natural log.

Set 4 — technique: DHFR PCA, deep sequencing; medium: yeast; added: (+)-ABA 200 µM; reference: wild-type fitted maximum; reading: higher = stronger binding
Target: ABI1, truncated, D143A, DHFR fusion (Arabidopsis thaliana)
Notes: methotrexate growth selection, single substitutions
Starting sequence: PYL1, truncated, DHFR fusion (Arabidopsis thaliana); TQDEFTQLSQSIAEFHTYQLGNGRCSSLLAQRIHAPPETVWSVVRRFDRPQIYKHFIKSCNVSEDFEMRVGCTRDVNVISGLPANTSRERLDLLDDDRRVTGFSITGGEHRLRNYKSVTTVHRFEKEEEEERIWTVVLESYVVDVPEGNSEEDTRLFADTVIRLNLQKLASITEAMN; partner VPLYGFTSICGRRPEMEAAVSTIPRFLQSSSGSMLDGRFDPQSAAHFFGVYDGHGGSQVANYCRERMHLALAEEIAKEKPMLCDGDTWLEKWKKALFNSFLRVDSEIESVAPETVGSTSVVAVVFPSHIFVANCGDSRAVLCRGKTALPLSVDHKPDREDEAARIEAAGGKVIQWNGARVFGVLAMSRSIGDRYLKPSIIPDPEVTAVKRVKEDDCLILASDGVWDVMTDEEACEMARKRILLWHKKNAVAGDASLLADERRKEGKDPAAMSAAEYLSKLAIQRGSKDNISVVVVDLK
`L156F` — result for “relative binding score”: 91.6%.
For `L169F`, “relative binding score” read -1.49%.
Under “relative binding score”, `S104Q` is recorded as 64.8%.
`T160D`: “relative binding score” -12.1%.
`S63F`: “relative binding score” 84.3%.
`Y115S` — result for “relative binding score”: -7%.
`N177E` — result for “relative binding score”: 97.2%.
`S9E` — result for “relative binding score”: 100%.

Some of these lines once more (set 4):
Under “relative binding score”, `S104Q` is recorded as 64.8%.
`T160D`: “relative binding score” -12.1%.
`S63F`: “relative binding score” 84.3%.
`Y115S` — result for “relative binding score”: -7%.
`N177E` — result for “relative binding score”: 97.2%.
`S9E` — result for “relative binding score”: 100%.
